Assay results pooled from the literature.
Parts stem from different laboratories: compare values within a part only.
UniProt P08913, sequence (whole entry, looked up): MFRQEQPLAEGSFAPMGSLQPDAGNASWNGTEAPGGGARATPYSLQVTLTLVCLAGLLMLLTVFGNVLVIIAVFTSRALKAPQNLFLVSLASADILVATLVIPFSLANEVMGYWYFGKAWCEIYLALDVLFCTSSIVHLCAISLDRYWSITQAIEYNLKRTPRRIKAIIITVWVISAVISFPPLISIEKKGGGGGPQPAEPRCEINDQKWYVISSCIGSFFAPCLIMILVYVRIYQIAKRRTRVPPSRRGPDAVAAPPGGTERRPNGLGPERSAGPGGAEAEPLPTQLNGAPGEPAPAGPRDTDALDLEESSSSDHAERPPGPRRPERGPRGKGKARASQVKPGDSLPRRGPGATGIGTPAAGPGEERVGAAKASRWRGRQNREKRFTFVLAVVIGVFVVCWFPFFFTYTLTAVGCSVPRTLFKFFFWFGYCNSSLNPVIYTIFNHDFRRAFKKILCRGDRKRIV
UniProt Q15835, sequence (whole entry, looked up): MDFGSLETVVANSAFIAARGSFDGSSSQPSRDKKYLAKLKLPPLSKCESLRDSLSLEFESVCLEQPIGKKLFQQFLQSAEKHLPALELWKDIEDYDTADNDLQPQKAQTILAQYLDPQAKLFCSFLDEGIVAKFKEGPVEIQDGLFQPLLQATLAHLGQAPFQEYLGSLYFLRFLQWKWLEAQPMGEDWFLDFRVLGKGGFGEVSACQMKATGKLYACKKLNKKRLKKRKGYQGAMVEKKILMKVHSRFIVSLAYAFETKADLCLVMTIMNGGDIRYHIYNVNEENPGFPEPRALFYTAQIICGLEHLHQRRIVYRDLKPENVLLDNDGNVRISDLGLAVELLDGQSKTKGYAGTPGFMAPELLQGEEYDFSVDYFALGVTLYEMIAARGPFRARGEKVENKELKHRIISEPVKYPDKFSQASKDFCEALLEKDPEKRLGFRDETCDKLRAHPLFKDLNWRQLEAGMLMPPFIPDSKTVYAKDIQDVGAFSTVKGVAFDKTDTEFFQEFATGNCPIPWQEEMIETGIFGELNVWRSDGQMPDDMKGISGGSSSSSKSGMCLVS
UniProt Q99720, sequence (whole entry, looked up): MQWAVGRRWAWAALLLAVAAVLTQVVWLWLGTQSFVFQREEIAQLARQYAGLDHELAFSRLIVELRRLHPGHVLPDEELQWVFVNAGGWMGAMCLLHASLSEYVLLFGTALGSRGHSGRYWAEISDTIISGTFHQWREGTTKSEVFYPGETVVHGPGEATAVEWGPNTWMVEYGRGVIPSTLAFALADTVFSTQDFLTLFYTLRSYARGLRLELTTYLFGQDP
UniProt Q9H3N8, sequence (whole entry, looked up): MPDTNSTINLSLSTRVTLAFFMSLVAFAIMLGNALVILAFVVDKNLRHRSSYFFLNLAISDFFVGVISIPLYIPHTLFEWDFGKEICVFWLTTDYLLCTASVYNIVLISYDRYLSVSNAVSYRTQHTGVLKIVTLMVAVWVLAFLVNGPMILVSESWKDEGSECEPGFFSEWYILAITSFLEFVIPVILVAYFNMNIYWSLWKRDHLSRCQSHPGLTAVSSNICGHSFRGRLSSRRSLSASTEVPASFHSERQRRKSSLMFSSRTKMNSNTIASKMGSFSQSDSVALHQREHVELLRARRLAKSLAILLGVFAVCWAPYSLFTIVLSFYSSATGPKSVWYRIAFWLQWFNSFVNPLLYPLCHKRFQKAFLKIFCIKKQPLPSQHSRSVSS
UniProt Q15759, sequence (whole entry, looked up): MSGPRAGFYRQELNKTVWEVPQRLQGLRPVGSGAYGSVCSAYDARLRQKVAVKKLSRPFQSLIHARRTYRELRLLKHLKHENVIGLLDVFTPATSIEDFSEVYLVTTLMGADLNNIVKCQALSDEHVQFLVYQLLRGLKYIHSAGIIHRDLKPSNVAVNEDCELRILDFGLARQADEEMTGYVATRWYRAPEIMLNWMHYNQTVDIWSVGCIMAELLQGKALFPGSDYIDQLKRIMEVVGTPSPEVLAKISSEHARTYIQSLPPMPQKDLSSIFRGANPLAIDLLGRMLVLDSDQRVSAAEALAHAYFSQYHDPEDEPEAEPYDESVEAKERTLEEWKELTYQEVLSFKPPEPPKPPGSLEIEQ
UniProt O75460, sequence (whole entry, looked up): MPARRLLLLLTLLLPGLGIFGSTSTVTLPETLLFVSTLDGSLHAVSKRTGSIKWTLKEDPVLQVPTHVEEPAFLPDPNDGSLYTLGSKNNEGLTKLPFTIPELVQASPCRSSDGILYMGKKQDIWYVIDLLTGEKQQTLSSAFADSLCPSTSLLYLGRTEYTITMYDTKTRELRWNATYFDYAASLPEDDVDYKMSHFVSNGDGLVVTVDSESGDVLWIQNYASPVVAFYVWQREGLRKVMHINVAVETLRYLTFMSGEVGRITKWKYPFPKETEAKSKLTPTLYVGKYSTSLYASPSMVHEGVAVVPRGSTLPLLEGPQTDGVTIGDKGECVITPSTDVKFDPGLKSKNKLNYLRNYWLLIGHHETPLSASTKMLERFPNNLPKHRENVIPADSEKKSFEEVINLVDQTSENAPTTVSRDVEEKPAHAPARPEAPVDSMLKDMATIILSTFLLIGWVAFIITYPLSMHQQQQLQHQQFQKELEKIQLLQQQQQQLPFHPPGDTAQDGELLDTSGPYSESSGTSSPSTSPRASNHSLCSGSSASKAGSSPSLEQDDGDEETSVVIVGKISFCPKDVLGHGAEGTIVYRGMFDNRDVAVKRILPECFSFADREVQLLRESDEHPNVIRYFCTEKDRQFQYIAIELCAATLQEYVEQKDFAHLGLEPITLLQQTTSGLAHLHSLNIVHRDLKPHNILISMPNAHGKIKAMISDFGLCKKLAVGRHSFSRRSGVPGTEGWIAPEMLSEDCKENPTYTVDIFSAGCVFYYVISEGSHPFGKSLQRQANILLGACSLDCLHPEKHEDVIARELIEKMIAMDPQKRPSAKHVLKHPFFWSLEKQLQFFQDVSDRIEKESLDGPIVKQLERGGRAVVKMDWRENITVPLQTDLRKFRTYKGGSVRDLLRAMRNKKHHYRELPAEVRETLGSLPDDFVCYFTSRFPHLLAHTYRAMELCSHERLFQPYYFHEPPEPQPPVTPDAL
UniProt P08912, sequence (whole entry, looked up): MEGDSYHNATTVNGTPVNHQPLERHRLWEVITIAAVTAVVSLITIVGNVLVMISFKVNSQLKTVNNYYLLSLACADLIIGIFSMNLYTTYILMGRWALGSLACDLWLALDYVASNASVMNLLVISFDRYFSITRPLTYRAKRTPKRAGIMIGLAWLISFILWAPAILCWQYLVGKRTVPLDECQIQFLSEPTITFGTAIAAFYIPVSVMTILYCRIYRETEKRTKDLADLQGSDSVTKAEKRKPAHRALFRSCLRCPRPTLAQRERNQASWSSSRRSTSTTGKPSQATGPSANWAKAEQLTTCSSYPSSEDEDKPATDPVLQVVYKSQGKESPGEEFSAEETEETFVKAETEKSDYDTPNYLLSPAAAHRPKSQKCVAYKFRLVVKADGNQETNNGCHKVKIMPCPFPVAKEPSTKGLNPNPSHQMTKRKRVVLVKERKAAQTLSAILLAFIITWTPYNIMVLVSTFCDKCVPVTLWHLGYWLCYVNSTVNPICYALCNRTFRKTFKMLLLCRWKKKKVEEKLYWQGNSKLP
UniProt P15735, sequence (whole entry, looked up): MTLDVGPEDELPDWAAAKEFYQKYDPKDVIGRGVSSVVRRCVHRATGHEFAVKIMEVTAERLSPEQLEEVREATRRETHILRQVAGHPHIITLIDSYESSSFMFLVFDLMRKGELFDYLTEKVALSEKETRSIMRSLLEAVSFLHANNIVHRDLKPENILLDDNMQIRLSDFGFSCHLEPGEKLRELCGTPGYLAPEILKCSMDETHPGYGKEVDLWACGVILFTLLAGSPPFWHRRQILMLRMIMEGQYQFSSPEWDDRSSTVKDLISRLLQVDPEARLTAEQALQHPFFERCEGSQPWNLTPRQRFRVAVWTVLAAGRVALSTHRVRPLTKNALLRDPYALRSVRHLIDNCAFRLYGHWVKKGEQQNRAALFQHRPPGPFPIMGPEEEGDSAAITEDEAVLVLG
UniProt P35367, sequence (whole entry, looked up): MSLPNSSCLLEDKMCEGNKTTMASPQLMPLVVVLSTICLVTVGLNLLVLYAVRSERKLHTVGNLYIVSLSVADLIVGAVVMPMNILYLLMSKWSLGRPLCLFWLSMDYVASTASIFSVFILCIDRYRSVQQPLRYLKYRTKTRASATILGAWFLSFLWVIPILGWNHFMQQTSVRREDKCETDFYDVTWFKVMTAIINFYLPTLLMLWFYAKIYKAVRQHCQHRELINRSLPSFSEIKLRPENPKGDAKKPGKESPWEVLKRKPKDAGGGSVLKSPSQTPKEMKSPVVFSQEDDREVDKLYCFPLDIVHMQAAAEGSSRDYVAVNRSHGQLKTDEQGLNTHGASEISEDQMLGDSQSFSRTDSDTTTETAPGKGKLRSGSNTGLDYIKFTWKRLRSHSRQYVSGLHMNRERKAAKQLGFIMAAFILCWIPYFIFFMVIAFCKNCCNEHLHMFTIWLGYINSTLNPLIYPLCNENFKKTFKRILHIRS
UniProt P25100, sequence (whole entry, looked up): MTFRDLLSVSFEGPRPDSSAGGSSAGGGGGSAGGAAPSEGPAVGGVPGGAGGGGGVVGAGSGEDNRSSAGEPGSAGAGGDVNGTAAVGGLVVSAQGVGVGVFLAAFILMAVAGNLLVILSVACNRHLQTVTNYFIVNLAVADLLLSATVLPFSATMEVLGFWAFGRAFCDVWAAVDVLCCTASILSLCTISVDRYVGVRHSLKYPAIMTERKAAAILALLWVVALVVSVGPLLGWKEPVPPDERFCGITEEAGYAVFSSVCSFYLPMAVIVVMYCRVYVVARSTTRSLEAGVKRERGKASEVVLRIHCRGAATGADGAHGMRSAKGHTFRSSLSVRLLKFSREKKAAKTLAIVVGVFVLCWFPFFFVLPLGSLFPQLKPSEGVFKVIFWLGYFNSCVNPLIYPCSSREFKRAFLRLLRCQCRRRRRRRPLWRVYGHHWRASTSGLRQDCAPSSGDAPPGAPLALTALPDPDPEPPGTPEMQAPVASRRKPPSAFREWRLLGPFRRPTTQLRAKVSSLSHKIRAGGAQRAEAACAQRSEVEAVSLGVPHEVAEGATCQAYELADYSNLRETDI

Study 1 — tested at: 10 µM
SMILES: Cc1sc(C(=O)NC2COC2)cc1-n1cc(NC(=O)Nc2c(F)cccc2Cl)cn1
| target | read-out | mode | method | baseline | remaining activity |
| --- | --- | --- | --- | --- | --- |
| Cyclin-dependent kinase 16, with cyclin Y (CDK16, Homo sapiens, UniProt Q00536) | kinase activity |  | kinase panel profiling |  | 102% |
| ERN1 (Homo sapiens, UniProt O75460) | enzyme activity |  |  | untreated control | 93.3% |
| MAPK11 (Homo sapiens, UniProt Q15759) | enzyme activity |  |  | untreated control | 88% |
| GRK1 (Homo sapiens, UniProt Q15835) | enzyme activity |  |  | untreated control | 109% |
| PRKACG (Homo sapiens, UniProt P22612) | enzyme activity |  |  | untreated control | 97.4% |
| DDR2 (Homo sapiens, UniProt Q16832) | enzyme activity |  |  | untreated control | 104% |
| Cyclin-dependent kinase 1, with cyclin B (CDK1, Homo sapiens, UniProt P06493) | enzyme activity |  |  | untreated control | 92.5% |
| RPS6KB2 (Homo sapiens, UniProt Q9UBS0) | enzyme activity | inhibitor |  |  | 98.9% |
| Myosin-IIIa (MYO3A, Homo sapiens, UniProt Q8NEV4) | enzyme activity | inhibitor |  |  | 91.1% |
| PHKG2 (Homo sapiens, UniProt P15735) | enzyme activity |  |  | untreated control | 80.5% |
| ROCK2 (Homo sapiens, UniProt O75116) | enzyme activity |  |  | untreated control | 91.7% |

Study 2 — cell line: HaCaT; tested at: 100 µM; time: 36 h
| SMILES | viability |
| --- | --- |
| CN1C[C@@H]2c3ccccc3Oc3ccc(Cl)cc3[C@H]2C1 (racemic) | 5.55% |
| CN[C@@H]1[C@H](O)[C@H](NC)[C@H]2O[C@@]3(O)C(=O)C[C@@H](C)O[C@H]3O[C@@H]2[C@H]1O | 98.1% |
| CC(C(=O)O)c1cccc(Oc2ccccc2)c1 (centres unmarked) | 71.1% |
| C[C@]12CC[C@@H]3c4ccc(O)cc4CC[C@H]3[C@@H]1C[C@@H](O)[C@@H]2O | 57.8% |
| O=C1[C@H](CC[C@H](O)c2ccc(F)cc2)[C@@H](c2ccc(O)cc2)N1c1ccc(F)cc1 | 5.59% |
| O=c1cc(-c2ccc(O)c(O)c2)oc2cc(O)cc(O)c12 | 32.2% |
| CC(C)C[C@H](NC(=O)CNC(=O)c1cc(Cl)ccc1Cl)B1OC(=O)C(CC(=O)O)(CC(=O)O)O1 | 4.79% |
| COc1ccc(-c2cc(=S)ss2)cc1 | 69% |
| CCOC(=O)[C@H](CCc1ccccc1)N[C@@H](C)C(=O)N(CC(=O)O)C1Cc2ccccc2C1 | 59.9% |
| CCN1CCN(C(=O)N[C@@H](C(=O)N[C@@H]2C(=O)N3[C@@H]2SC(C)(C)[C@@H]3C(=O)O)c2ccccc2)C(=O)C1=O | 93% |

Study 3 — read-out: ligand displacement; tested at: 10 µM
Structure (SMILES): N#CN1CC[C@H](C(=O)Nc2nc3c(s2)CN(C(=O)CN=[N+]=[N-])CC3)C1
| target | inhibition [%] |
| --- | --- |
| ADRA2C (Homo sapiens, UniProt P18825) | 14.7 |
| ADRA2A (Homo sapiens, UniProt P08913) | -13.6 |
| DRD4 (Homo sapiens, UniProt P21917) | 4.26 |
| ADRA1D (Homo sapiens, UniProt P25100) | 12.2 |
| TMEM97 (Homo sapiens, UniProt Q5BJF2) | -1.19 |
| HRH1 (Homo sapiens, UniProt P35367) | 7.45 |
| CHRM2 (Homo sapiens, UniProt P08172) | -0.45 |
| ADRB2 (Homo sapiens, UniProt P07550) | -0.7 |
| HTR7 (Homo sapiens, UniProt P34969) | -0.16 |
| HTR6 (Homo sapiens, UniProt P50406) | 9.94 |
| CHRM5 (Homo sapiens, UniProt P08912) | -13.6 |
| HRH4 (Homo sapiens, UniProt Q9H3N8) | 5.77 |
| SIGMAR1 (Homo sapiens, UniProt Q99720) | 69 |
| ADRA1B (Homo sapiens, UniProt P35368) | -12 |

Study 4 — organism: Sarcocystis neurona; read-out: parasite growth; tested at: 10 µM; time: 96 h; setting: first screen; baseline: untreated
| Compound | log2 fold change |
| --- | --- |
| OC(CCN1CCCC1)(c1ccccc1)C1CCCCC1 (centres unmarked) | -0.29 |
| O=C(O)c1cc(=O)c2c(OCC(O)COc3cccc4oc(C(=O)O)cc(=O)c34)cccc2o1 | 0.35 |
| NC[C@H]1CC[C@H](C(=O)Oc2ccc(CCC(=O)O)cc2)CC1 | -0.11 |
| OCCN1C[C@H](O)[C@@H](O)[C@H](O)[C@H]1CO | 0.18 |
| CCN(CC)CC#CCOC(=O)C(O)(c1ccccc1)C1CCCCC1 (centres unmarked) | 0.24 |
| CCCCC(=O)O[C@]1(C(=O)CO)CC[C@H]2[C@@H]3CCC4=CC(=O)CC[C@]4(C)[C@H]3[C@@H](O)C[C@@]21C | 0.03 |
| CN(C)CCc1c[nH]c2ccc(C[C@H]3COC(=O)N3)cc12 | -0.06 |
| CCCCC1=NC2(CCCC2)C(=O)N1Cc1ccc(-c2ccccc2-c2nnn[nH]2)cc1 | -0.29 |
| CC(C)(S)[C@@H](N)C(=O)O | 0.38 |
| Cc1c(O)c(=O)ccn1C | 0.07 |
| NS(=O)(=O)c1cc(C(=O)O)c(NCc2ccco2)cc1Cl | 0.4 |
| CC1(C)S[C@@H]2[C@H](NC(=O)COc3ccccc3)C(=O)N2[C@H]1C(=O)O | -0.15 |
